# Experimental data of several laboratories.
# Protocols differ between the studies behind these lines. Values joined by “and” are separate records of one study, mostly repeats; a detail may differ. Numbers after ± are the reported error.
SMILES,tested on,test,test system,conditions,how to read,quantity,value
CN1CCN(S(=O)(=O)c2cc([N+](=O)[O-])ccc2N(CCOS(C)(=O)=O)CCOS(C)(=O)=O)CC1,,,"NSG mice, sample DA PDX","intraperitoneal, 25 mg/kg weekly x3",,event-free survival,> 371 days
O=C(Cc1cccc(I)c1)N[C@H]1CCOC1=O,ExpR2 (Pectobacterium carotovorum),"cellulase activity, antagonist","Pectobacterium carotovorum, single-ExpR2 strain","5 µM, 4 h, together with: OHHL 5 µM",,inhibition,63%
CCCCCCCCCCCCCCCC[N+](C)(C)CCCCCCCCCCCC[N+](C)(C)CCCCCCCCCCCCCCCC.[Br-].[Br-],influenza A virus A/PR/8/34 (H1N1),,,"concentration not given, co-treatment",,HA titre reduction,5 log units
CN1CCN(C2(CNC3CCN(c4cccc(-c5cc6cc(F)ccc6[nH]5)c4)CC3)CCC2)CC1,UO-31,,,,,GI50,1710 nM
COc1c(CCC[P+](c2ccccc2)(c2ccccc2)c2ccccc2)cc2c(c1OC)OCO2.[I-],HCC 2998,SRB,,,,LC50,-4.3 log M
CCCCNCCc1c[nH]c2cccc(O)c12.O=C(O)/C=C/C(=O)O,,,C57BL/6J mice,"subcutaneous, 0.3 mg/kg",,head twitch count,5.5 ± 1
CCCCCCCCCCCC[N+](C)(C)CCCNCCC[N+](C)(C)CCCCCCCCCCCC.[Br-].[Br-],influenza A virus A/PR/8/34 (H1N1),,,"concentration not given, pre-treatment",,protection,62.8 ± 16.3%
COc1cc(CCC[P+](c2ccccc2)(c2ccccc2)c2ccccc2)c(OC)c2c1OCO2.[I-],LOX IMVI,SRB,,,,Log10LC50,-4.39 log M
CCNCCc1c[nH]c2cccc(O)c12.CCNCCc1c[nH]c2cccc(O)c12.O=C(O)CCC(=O)O,,,C57BL/6J mice,"subcutaneous, 1 mg/kg, 30 min session",,distance travelled,2420 ± 191 cm
CCCCC1(CCCC)CN(c2ccccc2)c2cc(SC)c(OCC(=O)N[C@@H](C(=O)NCC(=O)O)c3ccccc3)cc2S(=O)(=O)C1,,measured: HDL cholesterol,"human, serum","5 mg once daily, day 14",,serum HDL-C,48.9 mg/dL
O=C(O)/C=C/C(=O)O.Oc1cccc2[nH]cc(CCNC3CCCCC3)c12,,,C57BL/6J mice,"subcutaneous, 30 mg/kg",,head twitch count,1.7 ± 0.2
CCCCCCCCCCCCCCCC[N+](C)(C)CCCCCCCCCC[N+](C)(C)CCCCCCCCCCCCCCCC.[Br-].[Br-],influenza A virus A/PR/8/34 (H1N1),,,"concentration not given, co-treatment",,HA titre reduction,3 log units
C=CCNCCc1c[nH]c2cccc(O)c12.C=CCNCCc1c[nH]c2cccc(O)c12.O=C(O)/C=C/C(=O)O,,,C57BL/6J mice,"subcutaneous, 0.03 mg/kg, 30 min",,distance travelled,2790 ± 111 cm
C=CCN1CC[C@]23c4c5ccc(O)c4O[C@H]2C(=O)CC[C@@]3(O)[C@H]1C5,,tail-flick test,male ICR-CD1 mice,"subcutaneous, 5 mg/kg, 15 min",,% MPE,2.95% and 0.79% and -1.43% and -0.51% and 1.31% and -3.53%
CC[C@H](C)[C@@H]1NC(=O)[C@@H]2CCCN2C(=O)[C@H](CC(C)C)NC(=O)[C@H](CC(C)C)NC(=O)CNC(=O)[C@@H](NC(=O)[C@@H](NC(=O)[C@H](CC(=O)O)NC(=O)CNC(=O)[C@@H](NC(=O)[C@H](C)NC(=O)CNC(=O)[C@H](CCCCN)NC(=O)[C@H](CC(C)C)NC(=O)[C@H](CC(C)C)NC(=O)[C@H](CCCCN)NC(=O)CNC(=O)[C@@H](NC(=O)[C@@H](N)CC(C)C)C(C)C)C(C)C)C(C)C)CSSC[C@@H](C(=O)O)NC1=O,,"RNA-seq, measured: Acap1","mouse, traumatic brain injury model, frontal cortex and hippocampus",dose not given,baseline: TBI alone,log2 fold change,-4.17
CC(C)(C)NCCc1c[nH]c2cccc(O)c12.CC(C)(C)NCCc1c[nH]c2cccc(O)c12.O=C(O)/C=C/C(=O)O,,,C57BL/6J mice,"subcutaneous, 0.1 mg/kg",,head twitch count,4.8 ± 0.9
N.N.[Cl][Pt][Cl],,,"SAS xenograft, KSN/Slc nude mice","dose not given, day 0, group mean",,tumour volume,67.6 mm3
CCCNCCc1c[nH]c2cccc(O)c12.CCCNCCc1c[nH]c2cccc(O)c12.O=C(O)/C=C/C(=O)O,,,C57BL/6J mice,"subcutaneous, 0.1 mg/kg, 30 min",,distance travelled,1850 ± 247 cm
C/C=C1\CN2CC[C@H]1C[C@H]2[C@H](O)c1ccnc2ccc(O)cc12,West Nile virus,"viral replication, Rluc reporter replicon",Vero WNV replicon cells,"50 µM, 24 h",,inhibition,33.7 ± 2.9%
CC[C@H](C)[C@H](NC(=O)[C@H](C)NC(=O)[C@H](CCCCN)NC(=O)[C@H](CC(C)C)NC(=O)[C@H](C)NC(=O)[C@@H](NC(=O)[C@H](Cc1c[nH]cn1)NC(=O)[C@H](CC(C)C)NC(=O)[C@@H](NC(=O)[C@@H](NC(=O)[C@H](CCCCN)NC(=O)[C@H](C)NC(=O)[C@H](C)NC(=O)[C@H](CO)NC(=O)[C@H](CCCCN)NC(=O)[C@H](Cc1ccccc1)NC(=O)[C@@H](NC(=O)[C@H](CCCCN)NC(=O)[C@H](CC(C)C)NC(=O)[C@H](Cc1ccccc1)NC(=O)[C@H](CO)NC(=O)[C@H](CCCCN)NC(=O)[C@H](Cc1c[nH]c2ccccc12)NC(=O)[C@H](CCCCN)NC(C)=O)[C@@H](C)O)[C@@H](C)O)C(C)C)[C@@H](C)O)C(=O)N[C@@H](CO)C(=O)N[C@@H](CO)C(N)=O,Streptococcus pyogenes,,erythromycin-resistant,19 strains,,MIC90,32 µg/mL
C[C@H]1O[C@@H](O[C@H]2CC[C@@]3(C)[C@@H](CC[C@]4(C)[C@@H]3C=C[C@]35OC[C@@]6(CCC(C)(C)C[C@H]63)[C@@H](O)C[C@]54C)[C@]2(C)CO)[C@H](O)[C@@H](O[C@@H]2O[C@H](CO)[C@@H](O)[C@H](O)[C@H]2O)[C@H]1O,,,"mouse, chronic-plus-binge ethanol, AAV8-TBG-Null, liver","dose not given, high dose",,hepatic total cholesterol,0.135 mmol/g protein and 0.124 mmol/g protein and 0.166 mmol/g protein and 0.0979 mmol/g protein and 0.085 mmol/g protein and 0.103 mmol/g protein
CCCCCCCCCCCC[N+](C)(C)CCCCCC[N+](C)(C)CCCCCCCCCCCC.[Br-].[Br-],influenza A virus A/PR/8/34 (H1N1),,,"concentration not given, pre-treatment",,protection,66.1 ± 5.9%
CC(C)NCCc1c[nH]c2cccc(O)c12.O=C(O)/C=C/C(=O)O,,,C57BL/6J mice,"subcutaneous, 30 mg/kg",,head twitch count,31.8 ± 8.5
